Earlier results as cited in several papers.
Each numbered part shows a few of the values that one paper quotes. ± gives the spread as reported.
Chain of UniProt Q8TCC7 (whole entry, looked up): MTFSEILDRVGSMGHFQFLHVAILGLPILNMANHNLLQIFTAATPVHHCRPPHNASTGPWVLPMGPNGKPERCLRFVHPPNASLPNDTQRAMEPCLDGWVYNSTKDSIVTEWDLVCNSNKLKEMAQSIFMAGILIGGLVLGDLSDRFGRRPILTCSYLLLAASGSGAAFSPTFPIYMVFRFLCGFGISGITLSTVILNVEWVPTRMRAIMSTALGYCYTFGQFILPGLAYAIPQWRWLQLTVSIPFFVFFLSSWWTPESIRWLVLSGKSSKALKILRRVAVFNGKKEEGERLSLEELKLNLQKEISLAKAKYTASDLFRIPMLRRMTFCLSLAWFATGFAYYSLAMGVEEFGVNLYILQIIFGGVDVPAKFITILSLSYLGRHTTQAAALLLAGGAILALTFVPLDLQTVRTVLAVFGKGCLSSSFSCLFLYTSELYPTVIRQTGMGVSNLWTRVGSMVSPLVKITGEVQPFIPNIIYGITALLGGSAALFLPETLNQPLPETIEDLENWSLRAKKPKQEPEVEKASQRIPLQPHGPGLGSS

Series 1
Organism: SARS-CoV-2
Read-out: cytopathic effect
Cells: Caco-2
Concentration: 10 µM
`CS/C(N)=C(C#N)/C(C#N)=C(\N)SC` gave an inhibition of 17.7%.
`O=NN(CCCl)C(=O)NC1CCCCC1` has an inhibition of -3.8%.
For `COc1cc(-c2ccc(/N=N/c3ccc4c(S(=O)(=O)O)cc(S(=O)(=O)O)c(N)c4c3O)c(OC)c2)ccc1/N=N/c1ccc2c(S(=O)(=O)O)cc(S(=O)(=O)O)c(N)c2c1O`, the inhibition was 18.9%.
With `O=C(O)c1cc(N2N=C(C(F)(F)F)/C(=C/c3ccc(-c4ccccc4)o3)C2=O)ccc1Cl` the inhibition was 1.8%.
For `Cc1c(OCC(F)(F)F)ccnc1C[S+]([O-])c1nc2ccccc2[nH]1` (centres unmarked), the inhibition was 19.3%.
`N#CSc1cc(SC#N)c(N)nc1N` has an inhibition of 3.2%.
`CCn1c(-c2nonc2N)nc2cncc(CNC3CCNCC3)c21` gave an inhibition of 2.3%.
`CCC[C@H](NC(=O)[C@@H]1[C@H]2CCC[C@H]2CN1C(=O)[C@@H](NC(=O)[C@@H](NC(=O)c1cnccn1)C1CCCCC1)C(C)(C)C)C(=O)C(=O)NC1CC1` gave an inhibition of 2.3%.
The inhibition of `O=C(O)C(=O)CBr` is reported as 10.3%.
`O=C(/C=C/c1ccc(O)c(O)c1)O[C@H](Cc1ccc(O)c(O)c1)C(=O)O` gave an inhibition of -7.3%.
`CC(C)(C)c1ccc(S(=O)(=O)/C=C/C#N)cc1` has an inhibition of 3.2%.
`CC[n+]1c(-c2ccccc2)c2cc(N)ccc2c2ccc(N)cc21` gave an inhibition of 0.424%.
The inhibition of `CC(C)Nc1cccnc1N1CCN(C(=O)c2cc3cc(NS(C)(=O)=O)ccc3[nH]2)CC1.CS(=O)(=O)O` is reported as -1.6%.
For `Oc1cc2c(cc1O)CN(C(=S)NCCc1ccc(Cl)cc1)CCC2`, the inhibition was -31.2%.
With `CC[C@]12C=CCN3CC[C@@]4(c5cc([C@@]6(C(=O)OC)C[C@@H]7C[C@@H](C(C)(F)F)C[N@](CCc8c6[nH]c6ccccc86)C7)c(OC)cc5N(C)[C@H]4[C@@](O)(C(=O)OC)[C@@H]1OC(C)=O)[C@@H]32` the inhibition was -7.1%.
`O=C(O)c1ccc(N2C(=O)/C(=C\c3ccc(-c4ccc([N+](=O)[O-])cc4)o3)C=C2c2ccccc2)cc1` gave an inhibition of -7.5%.
`CCN(CC)C(=S)[S-].O.O.O.[Na+]` gave an inhibition of 12.6%.
With `COc1cc(C(=S)N2CCOCC2)ccc1O` the inhibition was 0.9%.
With `O=c1cc(-c2ccccc2)oc2cc(O)c(O)c(O)c12` the inhibition was -5.6%.
The inhibition of `O=c1cc(-c2ccc(O)cc2)oc2cc(O)cc(O)c12` is reported as -2.9%.
`Oc1cc2c(cc1O)[C@@H]1c3ccc(O)c(O)c3OC[C@]1(O)C2` gave an inhibition of -7.3%.
For `c1ccc2sc(SN3CCOCC3)nc2c1`, the inhibition was 64.6%.
`COc1nc2ccc(Br)cc2cc1[C@@H](c1ccccc1)[C@@](O)(CCN(C)C)c1cccc2ccccc12` has an inhibition of 6.6%.
`C=C1C(=O)[C@]23[C@H](O)[C@H]1CC[C@@H]2[C@@]12CO[C@]3(O)C[C@@H]1C(C)(C)CC[C@@H]2O` gave an inhibition of -4.1%.
`C/N=c1/nc(-c2ccccc2)n(-c2ccccc2)s1` gave an inhibition of 0.5%.

Other studies, line by line
rep papain-like protease: Replicase polyprotein 1ab, papain-like protease (rep, Severe acute respiratory syndrome coronavirus 2, UniProt P0DTD1)
The ID50 of `COc1ccc(CNC(=O)C2CCN([C@H](C)c3cccc4ccccc34)CC2)cc1` is reported as 10 µM (SARS-CoV-1; viral replication; Vero E6).
`C=C(C)[C@@H]1CCC(C)=C[C@H]1c1c(O)cc(CCCCC)c(C(=O)O)c1O` has an EC50 of 21.5 µM (SARS-CoV-2; viral replication; literature value).
For `Cc1cccc(C)c1OCC(=O)N[C@@H](Cc1ccccc1)[C@@H](O)C[C@H](Cc1ccccc1)NC(=O)[C@H](C(C)C)N1CCCNC1=O`, the IC50 was 12.6 µM (SARS-CoV-2; cytopathic effect; USA_WA1/2020).
The IC50 of `COc1ccc2nc3cc(Cl)ccc3c(Nc3cc(CN4CCCC4)c(O)c(CN4CCCC4)c3)c2n1` is reported as 1.8 µM (rep papain-like protease; enzyme activity, inhibitor).
For `O=c1[nH]c2ccccc2n1C1CCN(CCCC(c2ccc(F)cc2)c2ccc(F)cc2)CC1`, the IC50 was 4.5 µM (HEK293T-ACE2-TMPRSS2; pseudovirus entry; SARS-CoV-2 pseudovirus).
For `CN(C)CCCN1c2ccccc2Sc2ccc(Cl)cc21`, the EC50 was 11 µM (SARS-CoV-2; cytopathic effect; Vero E6 cells; 72 h).
`CCC(CC)COC(=O)[C@H](C)N[P@](=O)(OC[C@H]1O[C@@](C#N)(c2ccc3c(N)ncnn23)[C@H](O)[C@@H]1O)Oc1ccccc1` has an EC50 of 0.06 to 0.14 µM (Ebola virus; viral replication).
`O=C(O)c1cc(O)c2ccc(Cl)cc2n1` gave an IC50 of 0.56 µM (strychnine-insensitive glycine site; [3H]glycine binding).
`CC(CN1c2ccccc2Sc2ccccc21)N(C)C` (centres unmarked) has an EC50 of 11.8 µM (MERS-CoV; viral replication, ELISA; Vero E6).
With `C=CCN(Cc1ccccc1C(=O)NCc1ccccc1)Cc1ccc2c(c1C(=O)O)OCO2` the Kd was 1760 µM (Gag-Pol polyprotein, integrase catalytic core domain (gag-pol, Human immunodeficiency virus 1, UniProt P12497, C1203S/F1286D/F1332H); binding, SPR).
With `CN(C)CCCN1c2ccccc2Sc2ccc(C(F)(F)F)cc21` the EC50 was 5.76 µM (MERS-CoV; viral replication, ELISA; Vero E6).
With `COc1ccccc1-n1[se]c2ccccc2c1=O` the IC50 was 0.256 ± 0.035 µM (SARS-CoV-2 papain-like protease; enzyme activity; together with: 2 mM DTT).
`C[C@H](c1cccc2ccccc12)N1CCC(C(=O)NCc2cc(F)cc(NC(=O)N3CCN(C)CC3)c2)CC1` has an IC50 of 0.44 µM (SARS-CoV-2 PLpro; enzyme activity, inhibitor).
With `C[C@H](NCc1ccc(OCc2cccc(F)c2)cc1)C(N)=O` the IC50 was 33 µM (TTX-sensitive sodium channel; sodium current; hippocampal neurons; holding potential -60 mV).
The EC50 of `CCCCCc1cc(O)c(C/C=C(\C)CCC=C(C)C)c(O)c1C(=O)O` is reported as 23.3 µM (SARS-CoV-2; viral replication; literature value).
The IC50 of `C[C@@H]1C[C@H]2[C@@H]3CCC4=CC(=O)C=C[C@]4(C)[C@@]3(F)[C@@H](O)C[C@]2(C)[C@@]1(O)C(=O)CO` is reported as 47.1 µM (SLC22A8 (Homo sapiens, UniProt Q8TCC7); transport activity, inhibitor).
`N[C@@H](CC(=O)N1CCn2c(nnc2C(F)(F)F)C1)Cc1cc(F)c(F)cc1F` gave an IC50 of ~10 µM (rep papain-like protease; PLpro activity, inhibitor, cell-based ER membrane-anchored reporter translocation).
With `CC(C)C(=O)OC[C@H]1O[C@@H](n2ccc(NO)nc2=O)[C@H](O)[C@@H]1O` the risk reduction was 30% (hospitalization or death; sample A patients; dose not given, clinical trial).
The IC50 of `Cc1cccc(/C=N/Nc2cc(N3CCOCC3)nc(OCCc3ccccn3)n2)c1` is reported as 0.023 µM (SARS-CoV-2; cytopathic effect; USA_WA1/2020).
`O=c1c2ccccc2[se]n1-c1ccccc1O` gave an IC50 of 0.236 ± 0.107 µM (SARS-CoV-2 papain-like protease; enzyme activity; together with: 2 mM DTT).
`OCCOCCN1CCN(C(c2ccccc2)c2ccc(Cl)cc2)CC1` (centres unmarked) has an inhibition of -0.13% (SARS-CoV-2; viral cytopathic effect; Vero E6; 20 µM).
For `CC[C@@H](C)[C@H]1O[C@]2(CC[C@@H]1C)C[C@@H]1C[C@@H](C/C=C(\C)[C@@H](O[C@H]3C[C@H](OC)[C@@H](O[C@H]4C[C@H](OC)[C@@H](O)[C@H](C)O4)[C@H](C)O3)[C@@H](C)/C=C/C=C3\CO[C@@H]4[C@H](O)C(C)=C[C@@H](C(=O)O1)[C@]34O)O2`, the EC50 was 1.3 µM (SARS-CoV-2; cytopathic effect; Vero E6 cells; 72 h).
For `COc1ccc2c(O[C@@H]3C[C@H]4C(=O)N[C@]5(C(=O)NS(=O)(=O)C6CC6)C[C@H]5/C=C\CCCCN(C)C(=O)[C@@H]4C3)cc(-c3nc(C(C)C)cs3)nc2c1C`, the IC50 was 2.3 µM (SARS-CoV-2; viral replication; 293T/ACE2).
With `O=c1c(O)c(-c2cc(O)c(O)c(O)c2)oc2cc(O)cc(O)c12` the IC50 was 2.7 µM (Ebola virus VP35; dsRNA binding, inhibitor).
With `CC(=O)c1c(O)c(C)c(O)c2c1OC1=CC(=O)C(C(C)=O)C(=O)C12C` (centres unmarked) the Ki was 107 ± 60 µM (paraoxonase 1, human; inhibitor).

Some of these lines once more (other studies, line by line):
The IC50 of `Cc1cccc(/C=N/Nc2cc(N3CCOCC3)nc(OCCc3ccccn3)n2)c1` is reported as 0.023 µM (SARS-CoV-2; cytopathic effect; USA_WA1/2020).
For `CC[C@@H](C)[C@H]1O[C@]2(CC[C@@H]1C)C[C@@H]1C[C@@H](C/C=C(\C)[C@@H](O[C@H]3C[C@H](OC)[C@@H](O[C@H]4C[C@H](OC)[C@@H](O)[C@H](C)O4)[C@H](C)O3)[C@@H](C)/C=C/C=C3\CO[C@@H]4[C@H](O)C(C)=C[C@@H](C(=O)O1)[C@]34O)O2`, the EC50 was 1.3 µM (SARS-CoV-2; cytopathic effect; Vero E6 cells; 72 h).
For `CN(C)CCCN1c2ccccc2Sc2ccc(Cl)cc21`, the EC50 was 11 µM (SARS-CoV-2; cytopathic effect; Vero E6 cells; 72 h).
